{"data": "Measured values of several laboratories", "cell line": "HEK293", "note": "Each line is one published result; not all experiments were run side by side."}
{"Structure (SMILES)": "Brc1ccc(COc2ccccc2CNCc2cccnc2)cc1", "endpoint": "cytotoxic concentration", "result": "> 12.5 µM"}
{"Structure (SMILES)": "CC1CCC(C(C)C)C(OC2=C(Cl)C(=O)c3ccccc3C2=O)C1 (stereo not drawn)", "assay": "MTT", "conditions": "concentration not given", "endpoint": "cytotoxicity", "result": "not toxic"}
{"Structure (SMILES)": "C#CCS(=O)(=O)c1ccc(CCN(Cc2cc(Cl)ccc2OCCC)C(=O)Cc2ccsc2)cc1", "assay": "MTT", "conditions": "10 µM, 4 h", "endpoint": "viability reduction", "result": "11%"}
{"Structure (SMILES)": "N=C(N)c1ccc(-c2ccc(-c3ccc(C(=N)N)cc3)o2)cc1", "assay": "cell viability", "endpoint": "CC50", "result": "~180 µM"}
{"Structure (SMILES)": "NCC1CCN(c2nc(-c3ccncc3)nc3sc4c(c23)CCCC4)CC1", "assay": "WST-1", "conditions": "2.5 to 10 µM, together with: TNFα", "endpoint": "cell survival", "result": "no effect"}
{"Structure (SMILES)": "NS(=O)(=O)c1ccc(Nc2nc3noc(-c4ccc(Cl)cc4)c3s2)cc1", "endpoint": "CC50", "result": "7.94 µM"}
{"Structure (SMILES)": "CN(c1ccccc1C(=O)Nc1ccc(S(=O)(=O)N2CCN(c3cc(C(F)(F)F)cc(Cl)n3)CC2)cc1)S(C)(=O)=O", "conditions": "100 µM, 24 h", "endpoint": "viability", "result": "no effect"}
{"Structure (SMILES)": "CC1c2cc(c(O)cc2O)C(C)c2cc(c(O)cc2O)C(C)c2cc(c(O)cc2O)C(C)c2cc1c(O)cc2O (stereo not drawn)", "assay": "MTT", "endpoint": "CC50", "result": "> 10 µM"}
{"Structure (SMILES)": "Clc1ccc(COc2ccc(CNCc3ccccc3)cc2)cc1", "endpoint": "cytotoxic concentration", "result": "> 50 µM"}
{"Structure (SMILES)": "COc1ccc(N=S(C)(=O)c2c[nH]c3ccc(Br)cc23)cc1 (stereo not drawn)", "assay": "cytotoxicity, MTT", "conditions": "48 h", "endpoint": "IC50", "result": "> 40 µM"}
{"Structure (SMILES)": "CC[C@H](C)[C@H](NC(=O)[C@H](CC(=O)O)NC(=O)[C@H](CCC(=O)O)NC(=O)[C@@H](N)CC(N)=O)C(=O)N[C@@H](CC(=O)O)C(=O)N[C@@H](CCC(N)=O)C(=O)N[C@@H](CCSC)C(=O)N[C@@H](Cc1ccccc1)C(=O)N[C@@H](CO)C(=O)N[C@H](C(=O)N[C@@H](CC(C)C)C(=O)N[C@@H](CC(C)C)C(=O)NCC(=O)N[C@@H](CCC(=O)O)C(=O)N[C@@]1(C)CCCC=CCCC[C@@](C)(C(=O)N[C@@H](CCC(N)=O)C(=O)N[C@@H](CO)C(=O)O)NC(=O)[C@H](CC(C)C)NC(=O)[C@H](CC(C)C)NC(=O)[C@H](CC(=O)O)NC1=O)[C@@H](C)O", "conditions": "40 µM, 24, 48, 72 h", "endpoint": "cytotoxicity", "result": "not toxic"}
{"Structure (SMILES)": "CCOC(=O)c1cnc2c([N+](=O)[O-])cc(C(F)(F)F)cc2c1NCc1ccc(F)cc1", "endpoint": "CC50", "result": "~9 µM"}
{"Structure (SMILES)": "Clc1ccc(COc2ccccc2CNCc2ccccc2)cc1", "endpoint": "cytotoxic concentration", "result": "> 12.5 µM"}
{"Structure (SMILES)": "NS(=O)(=O)c1ccc(Nc2nc3noc(-c4cccc(O)c4)c3s2)cc1", "endpoint": "CC50", "result": "9.3 µM"}
{"Structure (SMILES)": "COc1cc(C(=O)NS(=O)(=O)c2ccccc2C)ccc1Cc1cn(C)c2ccc(NC(=O)OC3CCCC3)cc12", "assay": "cytotoxicity, resazurin", "conditions": "24 h", "endpoint": "highest non-cytotoxic concentration", "result": "> 128 µM"}
{"note": "For quick reference, copied from above:"}
{"Structure (SMILES)": "Clc1ccc(COc2ccc(CNCc3ccccc3)cc2)cc1", "endpoint": "cytotoxic concentration", "result": "> 50 µM"}
